Experimental data collected from several papers.
Lines come from different studies, so protocols differ. Numbers after ± are the reported error.
rep nsp14 N7-methyltransferase: Replicase polyprotein 1ab, nsp14 N7-methyltransferase (rep, Severe acute respiratory syndrome coronavirus 2, UniProt P0DTD1)
rep main protease: Replicase polyprotein 1ab, main protease (rep, Severe acute respiratory syndrome coronavirus 2, UniProt P0DTD1)

Structure (SMILES) | target or system | test | system | setting | quantity | value
Cc1cc(/C=C/c2ccc3cc(N(C)C)ccc3[n+]2C)c(C)n1-c1ccccc1 | rep nsp14 N7-methyltransferase | N7-methyltransferase activity, inhibitor, Py-FLINT | – | – | Hill slope | 1.54 ± 0.06
Cc1c(S(=O)(=O)N2CCc3[nH]ncc3C2)cc(C(=O)NCc2c(F)ccc3occc23)n1C | Replicase polyprotein 1ab, nsp14 (rep, Severe acute respiratory syndrome coronavirus 2, UniProt P0DTD1) | thermal stability | – | – | delta Tm | 20 °C
CC1CNc2c(cccc2S(=O)(=O)N[C@@H](CCCNC(=N)N)C(=O)N2CC[C@@H](C)C[C@@H]2C(=O)O)C1 (stereo partly shown) | rep main protease | reporter gene (mKate2), inhibitor | – | 20 µM | inhibition | -0.543%
Cn1cnc(Cn2c(=O)[nH]/c(=N\c3cc4cn(C)nc4cc3Cl)n(Cc3cc(F)c(F)cc3F)c2=O)n1 | – | – | human, moderate renal impairment | oral, 375 mg | anaemia TEAE, Mild severity | 0%
CS(=O)(=O)n1cc2c(n1)CN([C@H]1CO[C@H](c3cc(F)ccc3F)[C@@H](N)C1)C2 | rep main protease | reporter gene (mKate2), inhibitor | – | 20 µM | inhibition | 0.741%
Nc1ncnc2c([C@@H]3N[C@H](CO)[C@@H](O)[C@H]3O)c[nH]c12 | Japanese encephalitis virus | viral replication, inhibitor | Vero 76 | 29.6 µM | inhibition | 24.6%
CC[C@H](NC(=O)CCC(=O)O)C(=O)N[C@H](C(=O)N[C@@H](CC(C)C)C(=O)N[C@@H](CCC(N)=O)C(=O)Nc1ccc2c(C)cc(=O)oc2c1)C(C)(C)C | rep main protease | substrate | 5% DMSO | pH 7.2, 37 °C | apparent kcat | 0.43 s⁻¹
O=C1c2c(O)ccc(O)c2C(=O)c2c(NCCNCCO)ccc(NCCNCCO)c21 | rep nsp14 N7-methyltransferase | N7-methyltransferase activity, inhibitor, Py-FLINT | – | – | Hill slope | 1.15 ± 0.1
CN(Cc1cc(Br)cc(Br)c1N)C1CCCCC1 | rep main protease | reporter gene (Gaussia luciferase), inhibitor | – | 20 µM | inhibition | 1.29%
Cc1ccc2cc(C(=O)N3CCCC4(CCN(c5cc6nncn6c(C)n5)CC4)C3)ccc2c1 | rep main protease | enzyme activity, inhibitor | – | 5 µM, run 1 | inhibition | 15.5%
CC(C)C[C@H](NC(=O)[C@H](CCc1ccccc1)NC(=O)CN1CCOCC1)C(=O)N[C@@H](Cc1ccccc1)C(=O)N[C@@H](CC(C)C)C(=O)[C@@]1(C)CO1 | rep main protease | reporter gene (mKate2), inhibitor | – | 20 µM | inhibition | -0.81%
O=C(NC[C@H](NC(=O)c1cncc2ccccc12)c1ccc2ccccc2c1)c1cnc[nH]1 | rep main protease | enzyme activity | – | 5 µM, mean of runs | inhibition | 19%
O=C(Nc1cccc(C(=O)Nc2ccc(S(=O)(=O)O)c3cc(S(=O)(=O)O)cc(S(=O)(=O)O)c23)c1)Nc1cccc(C(=O)Nc2ccc(S(=O)(=O)O)c3cc(S(=O)(=O)O)cc(S(=O)(=O)O)c23)c1 | rep nsp14 N7-methyltransferase | N7-methyltransferase activity, inhibitor, Py-FLINT | – | – | Hill slope | 1.27 ± 0.73
O=C1CC[C@@H](CCC(=O)N2CCCC[C@@H](C3CN(C(=O)c4cnc5n[nH]nc5c4)C3)C2)CN1 | rep main protease | enzyme activity, inhibitor | – | 5 µM, mean of runs | inhibition | 14%
CC[C@H](C)[C@H](N)C(=O)N1CCC[C@H]1C(=O)N[C@H](C(=O)O)[C@@H](C)CC | rep main protease | reporter gene (mKate2), inhibitor | – | 20 µM | inhibition | -0.522%
Cc1ccc2[nH]ncc2c1C(=O)NC[C@H]1Cc2ccccc2CN1C(=O)C[C@H](C)c1ccco1 | rep main protease | enzyme activity, inhibitor | – | 5 µM, run 2 | inhibition | 11.6%
CC[C@H](C)[C@H](NC(=O)[C@H](CC(C)C)NC(=O)[C@H](Cc1c[nH]c2ccccc12)NC(=O)[C@H](CCC(N)=O)NC(=O)[C@@H](NC(=O)[C@H](Cc1ccccc1)NC(=O)[C@H](C)NC(=O)[C@H](CCCCNC(=O)COCCOCCNC(=O)COCCOCCNC(=O)CC[C@H](NC(=O)CCCCCCCCCCCCCCCCCCC(=O)O)C(=O)O)NC(=O)[C@H](CCC(N)=O)NC(=O)[C@H](C)NC(=O)[C@@H](NC(=O)[C@H](CCCCN)NC(=O)[C@H](CC(=O)O)NC(=O)[C@H](CC(C)C)NC(=O)C(C)(C)NC(=O)[C@@H](NC(=O)[C@H](CO)NC(=O)[C@H](Cc1ccc(O)cc1)NC(=O)[C@H](CC(=O)O)NC(=O)[C@H](CO)NC(=O)[C@@H](NC(=O)[C@H](Cc1ccccc1)NC(=O)[C@@H](NC(=O)CNC(=O)[C@H](CCC(=O)O)NC(=O)C(C)(C)NC(=O)[C@@H](N)Cc1ccc(O)cc1)[C@@H](C)O)[C@@H](C)O)[C@@H](C)CC)[C@@H](C)CC)C(C)C)C(=O)N[C@@H](C)C(=O)NCC(=O)NCC(=O)N1CCC[C@H]1C(=O)N[C@@H](CO)C(=O)N[C@@H](CO)C(=O)NCC(=O)N[C@@H](C)C(=O)N1CCC[C@H]1C(=O)N1CCC[C@H]1C(=O)N1CCC[C@H]1C(=O)N[C@@H](CO)C(N)=O | – | – | healthy subjects, single ascending dose | 2.5 mg, baseline | serum AST | 19.7 ± 5.6 U/L
Cc1c[nH]c2ncc(C(=O)N[C@H]3[C@H](CNc4cc(=O)n5ccccc5n4)CCC34CCC4)cc12 | rep main protease | enzyme activity, inhibitor | – | 5 µM, run 2 | inhibition | 18.7%
CCC(C(=O)Nc1cc(NC2CCOC2)ccc1C)n1cc(Cl)cc2nc(SCc3ccc(F)cc3)nc1-2 (stereo not shown) | Replicase polyprotein 1ab, papain-like protease (rep, Severe acute respiratory syndrome coronavirus 2, UniProt P0DTD1) | binding | – | – | koff | 0.103 s⁻¹

For quick reference, copied from above:
Structure (SMILES) | target or system | test | system | setting | quantity | value
O=C(NC[C@H](NC(=O)c1cncc2ccccc12)c1ccc2ccccc2c1)c1cnc[nH]1 | rep main protease | enzyme activity | – | 5 µM, mean of runs | inhibition | 19%
